Published values of several laboratories.
Each numbered part is a random draw from the data of one study; scales do not carry over between parts. Changes are numbered by the printed parent chain.

Set 1
Target: CCNE1, cyclin fold, Cln2 fusion (human)
Method: yeast growth competition, sequencing
Matrix: yeast
Setting: weak parent motif
Baseline: not given
Reading: higher = stronger binding
Starting sequence: ORC1 docking peptide (human); PRARKRLELGNLG
Variant	normalised enrichment score
L12I	0.0529
R2H	0.157
R4Q	-0.0271
G10T	-0.297
N11V	1.14
G10A	-0.0909
E8N	0.218
A3E	0.367
L12A	0.412
L7Q	0.175
R6N	0.121
L12C	0.0425
E8M	0.442

Set 2
Target: BATF, bZIP domain (human)
Method: DHFR protein complementation
Matrix: yeast
Setting: single substitutions, most at no-binding floor
Baseline: wild-type JUN-FOS pair
Reading: higher = stronger binding
Starting sequence: JUN, bZIP domain (human); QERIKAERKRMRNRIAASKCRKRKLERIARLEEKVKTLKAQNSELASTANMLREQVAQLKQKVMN; partner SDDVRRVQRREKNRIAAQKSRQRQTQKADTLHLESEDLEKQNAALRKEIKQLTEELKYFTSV
Variant	binding fitness [natural log]
N42P	-1.25
L59Q	-0.125
T37L	0.105
Q58V	0.0792
T48L	-0.0639
L45W	-0.683

Set 3
Target: Interferon regulatory factor 5, full length, phosphomimetic (IRF5, Homo sapiens, UniProt Q13568-2, residues 1-514, S451D/S453D/S456D/S462D)
Method: protein-binding microarray
Molecule type: double-stranded DNA, one strand shown
Matrix: in vitro
Tested at: 940 nM top
Setting: 60-bp whole probe
Added: salmon DNA 0.4 mg/ml
Baseline: random background probes
Reading: higher = stronger binding
Constant ends, left off below: GCCTAGCAC … GTCTTGATTCGCTTGACGCTGCTG
Oligonucleotide	fitted relative affinity [z-score]
TTAGATATCGGGTTTCGATTCGTGCTA	4.7
GACGATCTCAGTTTCGAGAGGTGCTAG	3.43
CTCTACCTCGTCATAGTAACGTGCTAG	0.211
CTTAGCTTGGGTCTGTGCCTGTGCTAG	-0.668
TCACCTTAGGTTTTCTGACTGTGCTAG	-0.21
TCATACATCTATGTAGAACTGTGCTAG	0.0346
TTAGATTTCGGGTTTCGATTTGTGCTA	5.61
GACGGTTCCCTCTTCCTGACGTGCTAG	0.766
ATAGGACTGGGGACTGGGTTAGTGCTA	-0.298
TTAGGTATCCTTATCCTTTCGTGCTAG	0.441
GACGAACTGAGTCTCGAGTCGTGCTAG	1.87
TTCGGTATCCTTATCCTTTAGTGCTAG	0.776
GACGGTATCCTTATCCTGAAGTGCTAG	0.275
TTAGGTTTCGGGTATCGGTTAGTGCTA	12
TTAGATATCCGTATCGATTAGTGCTAG	1.88

Other studies, line by line
Molecule	target	test	system	conditions	how to read	quantity	value
PhoQ, residues 284 288 289 292 302 303 SLGVVW	PhoP, residues 12 14 15 18 19 AQCLL (Escherichia coli, UniProt P23836)	Sort-seq, refers to: YFP reporter	E. coli	PhoQ-PhoP variant library, added: 10 µM Mg2+	baseline: high Mg2+ state, higher = stronger signaling	fold induction	10.7

A few entries again (set 2):
Variant	binding fitness [natural log]
T48L	-0.0639
N42P	-1.25
L59Q	-0.125
